Published values gathered from unrelated publications.
Numbers after ± are the reported error.

CC[C@H](C)[C@H](NC(=O)[C@H](CC(C)C)NC(=O)[C@H](Cc1c[nH]c2ccccc12)NC(=O)[C@H](C)NC(=O)[C@@H](NC(=O)[C@H](Cc1ccccc1)NC(=O)[C@H](CC(=O)O)NC(=O)[C@H](CCCNC(=N)N)NC(=O)[C@H](C)NC(=O)[C@H](C)NC(=O)[C@H](CC(C)C)NC(=O)[C@H](C)NC(=O)[C@H](CC(=O)O)NC(=O)[C@H](CC(C)C)NC(=O)[C@@H](NC(=O)[C@@H](NC(=O)[C@H](C)NC(=O)[C@H](CC(C)C)NC(=O)[C@H](CCC(=O)O)NC(=O)[C@H](CO)NC(=O)[C@H](CO)NC(=O)[C@H](Cc1ccccc1)NC(=O)[C@@H](NC(=O)CNC(=O)[C@H](CCC(=O)O)NC(=O)CNC(=O)[C@@H](N)Cc1c[nH]cn1)[C@@H](C)O)[C@@H](C)O)[C@@H](C)CC)[C@@H](C)CC)C(=O)N[C@@H](C)C(=O)N[C@H](C(=O)N[C@@H](CCCCN)C(=O)N[C@H](C(=O)N[C@H](C(=O)N[C@@H](CC(=O)O)C(=O)N[C@@H](CCCCN)C(=O)O)[C@@H](C)O)[C@@H](C)CC)[C@@H](C)O
Cmax (immunoaffinity LC-MS/MS; healthy human subjects, plasma; intravenous infusion, 1 mg single dose, infused over 15 min): 0.419 nM

CC(=O)N[C@H](CC(=O)O)C(=O)N[C@H](Cc1c[nH]c2ccccc12)C(=O)N[C@H](Cc1ccccc1)C(=O)N[C@H](CCCCN)C(=O)N[C@H](C)C(=O)N[C@H](Cc1ccccc1)C(=O)N[C@H](Cc1ccc(O)cc1)C(=O)N[C@H](CC(=O)O)C(=O)N[C@H](CCCCN)C(=O)N[C@@H](C(=O)N[C@H](C)C(=O)N[C@H](CCC(=O)O)C(=O)N[C@H](CCCCN)C(=O)N[C@H](Cc1ccccc1)C(=O)N[C@H](CCCCN)C(=O)N[C@H](CCC(=O)O)C(=O)N[C@H](C)C(=O)N[C@H](Cc1ccccc1)C(N)=O)C(C)C
Cmax (human, statin-treated high-risk CHD, male, plasma; oral, 500 mg daily, day 1, 0 to 2 h, mean, detected subjects only): 23.4 ng/mL

Cc1[nH]nc2c1N=C(c1ccccc1Cl)c1cnc(N3CCOCC3)cc1N2
Cmax (item: total radioactivity; human male, plasma; oral, 10 mg): 84.9 ng eq/mL

O=C(CCc1ccc(CNC(C(=O)OC2CCCC2)C2CCCCC2)cn1)NO (centres unmarked)
Cmax (human, plasma; oral, 40 mg once daily, day 1, geometric mean): 166 ng/mL

NC(=O)C1(NC(=O)[C@H](Cc2ccccc2)NC(=O)[C@@H](Cc2c[nH]c3ccccc23)NC(=O)[C@@H](Cc2csc3ccccc23)NC(=O)C2CCNCC2)CCNCC1
Cmax (human, diabetic gastroparesis, plasma; subcutaneous, 100 µg single dose): ~4 ng/mL

CC[C@H](C)[C@H](NC(=O)[C@H](CC(C)C)NC(=O)[C@H](Cc1c[nH]c2ccccc12)NC(=O)[C@H](C)NC(=O)[C@@H](NC(=O)[C@H](Cc1ccccc1)NC(=O)[C@H](CC(=O)O)NC(=O)[C@H](CCCNC(=N)N)NC(=O)[C@H](C)NC(=O)[C@H](C)NC(=O)[C@H](CC(C)C)NC(=O)[C@H](C)NC(=O)[C@H](CC(=O)O)NC(=O)[C@H](CC(C)C)NC(=O)[C@@H](NC(=O)[C@@H](NC(=O)[C@H](C)NC(=O)[C@H](CC(C)C)NC(=O)[C@H](CCC(=O)O)NC(=O)[C@H](CO)NC(=O)[C@H](CO)NC(=O)[C@H](Cc1ccccc1)NC(=O)[C@@H](NC(=O)CNC(=O)[C@H](CCC(=O)O)NC(=O)CNC(=O)[C@@H](N)Cc1cnc[nH]1)[C@@H](C)O)[C@@H](C)O)[C@@H](C)CC)[C@@H](C)CC)C(=O)N[C@@H](C)C(=O)N[C@H](C(=O)N[C@@H](CCCCN)C(=O)N[C@H](C(=O)N[C@H](C(=O)N[C@@H](CC(=O)O)C(=O)N[C@@H](CCCCN)C(=O)N[C@@H](CCCCN)C(=O)N[C@@H](CCCCN)C(=O)N[C@@H](CCCCN)C(=O)N[C@@H](CCCCN)C(=O)N[C@@H](CCCCN)C(N)=O)[C@@H](C)O)[C@@H](C)CC)[C@@H](C)O
Cmax (healthy humans, plasma; subcutaneous, 5 mg once weekly, 6 doses, day 36, geometric mean): 2.83 nM

CCc1cc(Nc2nc(-c3ccc(-n4cnc(C)c4)c(F)c3)cs2)c(C)cc1C
Cmax (human, both sexes, plasma; oral, 400 mg once daily, day 14, multiple dose, geometric mean): 1480 ng/mL

CC(C)[C@H](NC(=O)CNC(=O)[C@H](CCC(N)=O)NC(=O)[C@H](C)N)C(=O)O
Cmax (LC-MS/MS; human, male, plasma; intravenous, 30 mg/kg three times daily, day 3, first dose, 10 min infusion, geometric mean): 5100 ng/mL

CCc1c2c(nc3ccc(O)cc13)-c1cc3c(c(=O)n1C2)COC(=O)[C@]3(O)CC
Cmax (human patients, plasma; intravenous, 42 mg/m^2 of parent drug): 109 ng/mL

CC[C@H](C)[C@H](NC(=O)[C@H](CC(C)C)NC(=O)[C@H](Cc1c[nH]c2ccccc12)NC(=O)[C@H](C)NC(=O)[C@@H](NC(=O)[C@H](Cc1ccccc1)NC(=O)[C@H](CC(=O)O)NC(=O)[C@H](CCCNC(=N)N)NC(=O)[C@H](C)NC(=O)[C@H](C)NC(=O)[C@H](CC(C)C)NC(=O)[C@H](C)NC(=O)[C@H](CC(=O)O)NC(=O)[C@H](CC(C)C)NC(=O)[C@@H](NC(=O)[C@@H](NC(=O)[C@H](C)NC(=O)[C@H](CC(C)C)NC(=O)[C@H](CCC(=O)O)NC(=O)[C@H](CO)NC(=O)[C@H](CO)NC(=O)[C@H](Cc1ccccc1)NC(=O)[C@@H](NC(=O)CNC(=O)[C@H](CCC(=O)O)NC(=O)CNC(=O)[C@@H](N)Cc1c[nH]cn1)[C@@H](C)O)[C@@H](C)O)[C@@H](C)CC)[C@@H](C)CC)C(=O)N[C@@H](C)C(=O)N[C@H](C(=O)N[C@@H](CCCCN)C(=O)N[C@H](C(=O)N[C@H](C(=O)N[C@@H](CC(=O)O)C(=O)N[C@@H](CCCCN)C(=O)N[C@@H](CCCCN)C(=O)O)[C@@H](C)O)[C@@H](C)CC)[C@@H](C)O
Cmax (immunoaffinity LC-MS/MS; healthy human subjects, plasma; intravenous infusion, 1 mg single dose, infused over 15 min): 0.446 nM

O=C(CCc1ccc(CNC(C(=O)O)C2CCCCC2)cn1)NO (centres unmarked)
Cmax (human, plasma; oral, 40 mg once daily, day 1, geometric mean): 151 ng/mL

CC(C)(O)c1ncc([S@](N)(=O)=NC(=O)Nc2c3c(cc4c2CCC4)CCC3)s1
Cmax (healthy human; oral, 30 mg once daily, day 14, capsule formulation, geometric mean): 2770 ng/mL

[2H]C([2H])([2H])NC(=O)c1ccc(N2C(=S)N(c3ccc(C#N)c(C(F)(F)F)c3)C(=O)C2(C)C)cc1F
Cmax (healthy male human, plasma; oral, 160 mg, high-fat meal, single dose): 4830 ± 1160 ng/mL

Cc1nc(C)c(C=[N+]([O-])C(C)(C)C)nc1C
Cmax (healthy human, both sexes, serum; oral, 1200 mg twice daily, 7 days): 25300 ng/mL

Cn1c(=O)oc2ccc(-c3ccc(CC(C#N)NC(=O)C4CNCCCO4)c(F)c3)cc21 (centres unmarked)
Cmax (human, plasma; 40 mg once daily, day 28, geometric mean): 380 ng/mL

CC(=O)Nc1ccc(C(N)=O)c(F)c1
Cmax (HPLC-MS/MS; human, male, plasma; 25 mg, geometric mean, 1): 10.2 ng/mL

CN[C@@H](CCOc1cccc2ccccc12)c1ccccc1
Cmax (healthy male humans, plasma; oral, 60 mg of dapoxetine, together with: udenafil 200 mg): 12.7 ± 6.17 ng/mL

A few entries again:
NC(=O)C1(NC(=O)[C@H](Cc2ccccc2)NC(=O)[C@@H](Cc2c[nH]c3ccccc23)NC(=O)[C@@H](Cc2csc3ccccc23)NC(=O)C2CCNCC2)CCNCC1
Cmax (human, diabetic gastroparesis, plasma; subcutaneous, 100 µg single dose): ~4 ng/mL
